Published values gathered from unrelated publications.
Every numbered part comes from another study and shows a few of its results, in no order. Changes are numbered by the printed parent chain.
Sequence of UniProt P61075 (whole entry, looked up): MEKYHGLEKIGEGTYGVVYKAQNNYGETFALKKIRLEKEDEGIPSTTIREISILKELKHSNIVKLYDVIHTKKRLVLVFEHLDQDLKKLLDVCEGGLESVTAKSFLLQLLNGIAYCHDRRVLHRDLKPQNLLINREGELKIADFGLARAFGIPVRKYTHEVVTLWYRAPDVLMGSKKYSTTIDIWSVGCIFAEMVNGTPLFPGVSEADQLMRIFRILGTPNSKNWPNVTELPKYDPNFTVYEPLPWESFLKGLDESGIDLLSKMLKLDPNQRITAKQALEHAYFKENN
Sequence of UniProt Q6ZN16 (whole entry, looked up): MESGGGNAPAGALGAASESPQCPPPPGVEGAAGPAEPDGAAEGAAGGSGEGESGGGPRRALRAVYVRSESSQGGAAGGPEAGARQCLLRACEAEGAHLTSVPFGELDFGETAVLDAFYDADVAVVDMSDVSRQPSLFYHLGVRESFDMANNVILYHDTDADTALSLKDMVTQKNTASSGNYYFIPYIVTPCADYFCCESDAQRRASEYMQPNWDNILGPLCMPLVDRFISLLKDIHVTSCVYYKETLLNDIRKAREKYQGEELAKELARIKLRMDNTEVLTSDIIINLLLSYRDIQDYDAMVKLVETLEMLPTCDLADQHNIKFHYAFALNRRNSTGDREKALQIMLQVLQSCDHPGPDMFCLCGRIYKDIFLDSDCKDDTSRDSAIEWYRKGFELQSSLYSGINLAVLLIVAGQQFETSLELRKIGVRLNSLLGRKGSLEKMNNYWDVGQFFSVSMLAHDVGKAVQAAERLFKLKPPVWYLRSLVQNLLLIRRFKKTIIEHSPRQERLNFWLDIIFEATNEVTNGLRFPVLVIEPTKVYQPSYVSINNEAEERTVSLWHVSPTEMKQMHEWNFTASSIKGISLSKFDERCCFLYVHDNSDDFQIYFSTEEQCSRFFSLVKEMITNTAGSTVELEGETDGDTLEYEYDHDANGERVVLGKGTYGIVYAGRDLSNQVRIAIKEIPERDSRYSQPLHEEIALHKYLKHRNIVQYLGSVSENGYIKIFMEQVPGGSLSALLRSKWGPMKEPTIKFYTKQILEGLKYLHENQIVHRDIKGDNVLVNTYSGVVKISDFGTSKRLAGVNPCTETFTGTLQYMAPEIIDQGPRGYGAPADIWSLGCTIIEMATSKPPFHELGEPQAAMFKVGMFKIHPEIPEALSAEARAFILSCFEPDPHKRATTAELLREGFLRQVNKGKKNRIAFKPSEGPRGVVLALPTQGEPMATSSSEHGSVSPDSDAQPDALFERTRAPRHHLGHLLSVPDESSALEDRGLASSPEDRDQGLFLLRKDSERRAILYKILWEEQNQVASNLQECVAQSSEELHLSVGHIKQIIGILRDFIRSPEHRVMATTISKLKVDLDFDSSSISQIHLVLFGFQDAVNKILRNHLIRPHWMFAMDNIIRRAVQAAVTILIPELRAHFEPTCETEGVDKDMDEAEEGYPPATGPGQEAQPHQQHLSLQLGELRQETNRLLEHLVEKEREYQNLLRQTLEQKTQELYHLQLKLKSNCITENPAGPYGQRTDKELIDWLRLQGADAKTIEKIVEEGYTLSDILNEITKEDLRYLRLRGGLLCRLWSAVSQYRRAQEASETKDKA
Sequence of UniProt P41143 (whole entry, looked up): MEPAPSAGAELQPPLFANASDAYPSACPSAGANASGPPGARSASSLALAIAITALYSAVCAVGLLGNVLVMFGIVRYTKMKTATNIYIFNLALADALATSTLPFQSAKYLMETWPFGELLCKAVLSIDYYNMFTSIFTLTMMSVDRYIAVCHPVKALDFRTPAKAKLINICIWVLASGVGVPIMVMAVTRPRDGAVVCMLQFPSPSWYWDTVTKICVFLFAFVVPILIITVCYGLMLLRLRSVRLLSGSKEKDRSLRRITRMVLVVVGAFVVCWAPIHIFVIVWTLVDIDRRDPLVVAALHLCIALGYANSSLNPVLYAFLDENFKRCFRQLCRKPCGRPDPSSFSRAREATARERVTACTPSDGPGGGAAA

Set 1 — read-out: peptide-MHC binding; molecule type: peptide; reading: direction not given
Target: HLA class I histocompatibility antigen, A alpha chain, allele A*80:01 (Homo sapiens, UniProt P04439)
Sequence | z-score of log IC50
DEFLKVPEW | 0.38
DLAQDPMLI | 0.38
DEEAINLFH | 0.38
FHIVNQESL | 0.38
CERYGFPAS | 0.38
GAWCYDYTV | 0.38
FVMPIFEQI | 0.38
FLRKNQRAL | 0.38

Set 2 — target: CCNF, cyclin fold, Cln2 fusion (human); method: yeast growth competition, sequencing; matrix: yeast; notes: strong parent motif; relative to: not given; reading: higher = stronger binding; parent: viral docking peptide; YKVKRRLVFGADD
Change | normalised enrichment score
R5E | 0.532
A11F | 9.13
R5C | 5.59
L7P | 0.295
A11T | 8.86
L7C | 1.79
R5P | 0.433
D12I | 8.79

Mixed results
SMILES | tested on | assay | setting | how to read | endpoint | value
COc1nc2ccc([C@@](O)(c3ccccc3)C3CCN(C(C)=O)CC3)cc2c(Cl)c1Cc1ccc(-n2cccn2)cc1 | 5-hydroxytryptamine receptor 1A (HTR1A, Homo sapiens, UniProt P08908) | binding, radioligand binding | 10 µM |  | inhibition | 16.6%
CCC(COC(=O)c1cc(OC)c(OC)c(OC)c1)(c1ccccc1)N(C)C.O=C(O)/C=C\C(=O)O (stereo not shown) | Sarcocystis neurona | parasite growth | 10 µM, second screen | relative to: untreated | log2 fold change | 0.58
CCC(=N\O)/C(C)=C/c1ccc(F)cc1 | Cyclin-dependent kinase 2 homolog (CRK2, Plasmodium falciparum, UniProt P61075) | cell-free assay, competition with immobilised ligand | 1 µM |  | remaining binding | 84%
CC(C)CC(N(C)C)C1(c2ccc(Cl)cc2)CCC1.Cl (stereo not shown) | Sarcocystis neurona | parasite growth | 10 µM, second screen | relative to: untreated | log2 fold change | 0.51
CCS(=O)(=O)c1cc2cc(C[C@@](O)(CC(C)(C)c3ccc(F)cc3C(N)=O)C(F)(F)F)[nH]c2cn1 | Delta-type opioid receptor (OPRD1, Homo sapiens, UniProt P41143) | binding, radioligand binding | 10 µM |  | inhibition | -3.88%
O=C(NCc1ncc(C(F)(F)F)cc1Cl)c1ccc2c(c1)C1(CCS(=O)(=O)CC1)[C@H](C1CC1)N2S(=O)(=O)c1ccc(F)cc1 | Mitogen-activated protein kinase kinase kinase 15 (MAP3K15, Homo sapiens, UniProt Q6ZN16) | cell-free assay, competition with immobilised ligand | 1 µM |  | remaining binding | 96%
